Results of several laboratories.
Protocols differ between the studies behind these lines. ± marks the error that the study gave.
LGALS9: Galectin-9 (LGALS9, Homo sapiens, UniProt O00182)
BPTF bromodomain: Nucleosome-remodeling factor subunit BPTF, bromodomain (BPTF, Homo sapiens, UniProt Q12830)

CC[C@H](C)[C@H](NC(=O)[C@H](CCCCN)NC(=O)[C@H](CCCCN)NC(=O)[C@@H](NC(=O)[C@H](CCC(=O)O)NC(=O)[C@H](CCC(=O)O)NC(=O)[C@H](CCC(=O)O)NC(=O)[C@H](CO)NC(=O)[C@H](CC(C)C)NC(=O)[C@H](CC(=O)O)NC(=O)[C@H](CC(C)C)NC(=O)CNC(=O)[C@H](CCCNC(=N)N)NC(=O)[C@H](CC(C)C)NC(=O)[C@H](CO)NC(=O)CNC(=O)CNC(=O)CNC(=O)CCCC[C@@H]1SC[C@@H]2NC(=O)N[C@@H]21)C(C)C)C(=O)N[C@@H](CC(C)C)C(=O)N[C@@H](CC(=O)O)C(=O)N[C@@H](CCC(=O)O)C(=O)N[C@H](C(=O)N[C@H](C(=O)N[C@@H](CCCCN)C(=O)N[C@@H](C)C(=O)O)C(C)C)[C@@H](C)CC
Kd (Fab B11 antibody (human); binding, biolayer interferometry; with: biotinylated peptide on tips): 0.106 ± 0.004 µM

CCCC[C@@H]1NC(=O)[C@H](Cc2ccc(O)cc2)NC(=O)[C@@H]2CCCN2C(=O)[C@H](CC(=O)O)NC(=O)[C@H](C)NC(=O)[C@H](Cc2ccccc2)NC(=O)[C@@H]2CSCCC(=O)N3CN(CN(C3)C(=O)CCSC[C@@H](C(=O)N[C@@H](C)C(N)=O)NC1=O)C(=O)CCSC[C@H](NC(C)=O)C(=O)N[C@@H](CC(C)(C)C)C(=O)N1CCC[C@H]1C(=O)N[C@@H](CCC(=O)O)C(=O)N[C@H](CCCCNC(=O)CCc1cn(CCOCCOCCOCCN(CCOCCOCCOCCC(=O)N[C@H]3CSCCC(=O)N4CN5CN(C4)C(=O)CCSC[C@H](NC(=O)[C@@H](CC(=O)O)NC(=O)[C@H](Cc4cccc6ccccc46)NC(=O)[C@@H]4CCCN4C3=O)C(=O)N[C@@H](CCSC)C(=O)N[C@@H](CCCCNC(=N)N)C(=O)N[C@@H](CC(=O)O)C(=O)N[C@@H](Cc3c[nH]c4ccccc34)C(=O)N[C@@H](CO)C(=O)N[C@@H]([C@@H](C)O)C(=O)N3CCC[C@H]3C(=O)N3C[C@H](O)C[C@H]3C(=O)N[C@@H](Cc3c[nH]c4ccccc34)C(=O)N[C@H](C(N)=O)CSCCC5=O)CCOCCOCCOCCn3cc(CCC(=O)NCCCC[C@H]4NC(=O)[C@H](CCC(=O)O)NC(=O)[C@@H]5CCCN5C(=O)[C@H](CC(C)(C)C)NC(=O)[C@@H](NC(C)=O)CSCCC(=O)N5CN6CN(C5)C(=O)CCSC[C@H](NC(=O)[C@H](Cc5ccc(O)cc5)NC(=O)[C@@H]5CCCN5C4=O)C(=O)N[C@@H](Cc4ccccc4)C(=O)N[C@@H](C)C(=O)N[C@@H](CC(=O)O)C(=O)N4CCC[C@H]4C(=O)N[C@@H](Cc4ccc(O)cc4)C(=O)N[C@@H](CCCC)C(=O)N[C@H](C(=O)N[C@@H](C)C(N)=O)CSCCC6=O)nn3)nn1)C(=O)N1CCC[C@H]1C(=O)N[C@@H](Cc1ccc(O)cc1)C(=O)N2
Kd (Nectin-4 (Nectin4, Mus musculus, UniProt Q8R007); binding, SPR; captured on human CD137, with: mouse soluble Nectin-4): 0.007 µM

CCC(C)/C=C/C(C)=C\C=C\C(C)=C\C=O (centres unmarked)
Kd (Rhodopsin, apoprotein (opsin) (RHO, Bos taurus, UniProt P02699); Trp fluorescence quenching; opsin membranes; titration up to 1 µM): 0.1 µM

CC(C)C[C@@H]1NC(=O)CNC(=O)[C@H]([C@@H](C)O)NC(=O)[C@@H](NC(=O)COCCOCCNC(=S)Nc2ccc3c(c2)C(=O)OC32c3ccc(O)cc3Oc3cc(O)ccc32)CCCCNC(=O)c2cc3cc(c2)NC(=O)CSC[C@H](NC(=O)[C@H](CO)NC(=O)[C@H](C(C)C)NC(=O)[C@H](Cc2c[nH]c4ccccc24)NC(=O)[C@H](CO)NC(=O)[C@H]([C@@H](C)O)NC1=O)C(=O)N[C@@H](Cc1c[nH]cn1)C(=O)N[C@@H](Cc1ccccc1)C(=O)N[C@@H](CC(C)C)C(=O)N[C@@H](CCCNC(=N)N)C(=O)N[C@@H](CO)C(=O)N[C@@H](CC(C)C)C(=O)N[C@H](C(N)=O)CSCC(=O)N3
Kd (Transcriptional enhancer factor TEF-3 (TEAD4, Homo sapiens, UniProt Q15561); binding, FP): 0.0701 µM

CCNC(=O)c1ccc(CNC(=O)Cn2cc(-c3c(C)noc3C)cn2)cc1
Kd (Bromodomain-containing protein 4, BD1 (BRD4, Homo sapiens, UniProt O60885); binding, SPR): 35 µM

OC[C@H]1Oc2cc(Cc3ccc(F)cc3)cc3c2[C@@H](OC3)[C@H]1O
Kd (LGALS9; cell-free assay, FP): > 1000 µM

CC(C)C[C@H](NC(=O)[C@H](C)NC(=O)[C@H](CC(C)C)NC(=O)[C@@H]1CCCN1C(=O)[C@H](Cc1ccccc1)NC(=O)[C@H](CC(N)=O)NC(=O)[C@H](Cc1ccc(OP(=O)(O)O)cc1)NC(=O)[C@H](Cc1ccc(O)cc1)NC(=O)[C@H](CC(=O)O)NC(=O)[C@H](CCCNC(=N)N)NC(=O)[C@@H](N)CO)C(=O)N[C@@H](C)C(=O)N[C@@H](CC(=O)O)C(=O)O
Kd (SH2 domain-containing protein 3C, SH2 domain (SH2D3C, Homo sapiens, UniProt Q8N5H7); binding, fluorescence polarization; phosphopeptide probe): 2.28 µM

CC1CC(C)(C)N(C(=O)CN2C(=O)c3ccccc3C2=O)c2ccc(C(=O)N3CCN(C(=O)CCC4=[N+]5C(=Cc6ccc(-c7ccc[nH]7)n6[B-]5(F)F)C=C4)CC3)cc21 (centres unmarked)
Kd (Mucolipin-1 (MCOLN1, Homo sapiens, UniProt Q9GZU1); BRET kinetics; HEK293T): 0.8 ± 0.4 µM

CC[C@H](C)[C@H](NC(=O)[C@H](Cc1c[nH]c2ccccc12)NC(=O)[C@@H]1CSSC[C@H](NC(=O)[C@H](CCC(=O)O)NC(=O)[C@@H](N)Cc2c[nH]c3ccccc23)C(=O)N2CCC[C@H]2C(=O)N[C@@H](Cc2ccc(O)cc2)C(=O)NCC(=O)N[C@@H](CC(C)C)C(=O)N1)C(=O)N[C@@H](CCC(N)=O)C(N)=O
Kd (FGA/FGB/FGG (Homo sapiens, UniProt P02671+P02675+P02679); isothermal titration calorimetry): > 50 µM

Fc1cc2c(c3ncccc13)OCN(CCc1cccc(Br)c1)C2
Kd (rplL (Escherichia coli, UniProt P0A7K2); binding, SPR): 13.8 µM

CNCCCC[C@H](NC(=O)CNC(=O)CNC(=O)[C@H](C)NC(=O)[C@@H](N)Cc1ccc(O)cc1)C(=O)N[C@@H](C)C(=O)NCC(=O)N[C@@H](CCCCNC(C)=O)C(=O)N[C@@H](CC(=O)O)C(=O)N[C@@H](CO)C(=O)NCC(=O)N[C@@H](CCCCN)C(=O)N[C@@H](C)C(=O)N[C@@H](CCCCNC(C)=O)C(=O)N[C@@H](C)C(=O)N[C@@H](CCCCN)C(=O)N[C@@H](C)C(=O)N[C@H](C(=O)N[C@@H](CO)C(=O)N[C@@H](CCCNC(=N)N)C(N)=O)C(C)C
Kd (BPTF bromodomain; bromodomain binding, PrOF NMR titration; pH 7.4, 5-fluorotryptophan-labelled bromodomain, 40-50 µM): 340 µM

Cn1cnnc1Sc1c2c(c(C#N)c3nc4ccccc4n13)CCCC2
Kd (ERO1-like protein alpha (Homo sapiens, UniProt Q96HE7); binding, biolayer interferometry): 1.1 µM

CC(=O)NCCCC[C@H](NC(=O)[C@H](C)NC(=O)[C@H](CCCCN)NC(=O)CNC(=O)[C@H](CO)NC(=O)[C@H](CC(=O)O)NC(=O)[C@H](CCCCN)NC(=O)CNC(=O)[C@H](C)NC(=O)[C@H](CCCCN)NC(=O)CNC(=O)CNC(=O)[C@H](C)NC(=O)[C@@H](N)Cc1ccc(O)cc1)C(=O)N[C@H](C(=O)N[C@@H](CCCCNC(C)=O)C(=O)N[C@@H](C)C(=O)N[C@H](C(=O)N[C@@H](CO)C(=O)N[C@@H](CCCNC(=N)N)C(N)=O)C(C)C)[C@@H](C)O
Kd (BPTF bromodomain; bromodomain binding, PrOF NMR titration; pH 7.4, 5-fluorotryptophan-labelled bromodomain, 40-50 µM): 830 µM

CC(=O)N[C@@H]1[C@@H](O[C@@H]2O[C@H](C(=O)O)[C@@H](O[C@@H]3O[C@H](COS(=O)(=O)O)[C@@H](OS(=O)(=O)O)[C@H](O[C@@H]4O[C@H](C(=O)O)[C@@H](O[C@@H]5O[C@H](COS(=O)(=O)O)[C@@H](OS(=O)(=O)O)[C@H](O[C@@H]6O[C@H](C(=O)O)[C@@H](OS(=O)(=O)O)[C@H](OS(=O)(=O)O)[C@H]6OS(=O)(=O)O)[C@H]5NC(C)=O)[C@H](OS(=O)(=O)O)[C@H]4OS(=O)(=O)O)[C@H]3NC(C)=O)[C@H](OS(=O)(=O)O)[C@H]2OS(=O)(=O)O)[C@H](OS(=O)(=O)O)[C@@H](COS(=O)(=O)O)O[C@H]1N=[N+]=[N-]
Kd (Transforming growth factor beta-1 proprotein, mature (TGFB1, Homo sapiens, UniProt P01137); fluorescence polarization competition): 1.01 ± 0.64 µM

O=C(Cc1ccc(F)cc1)NCCOc1ccc(-c2ccc(F)cc2)nn1
Kd (V-type immunoglobulin domain-containing suppressor of T-cell activation (Mus musculus, UniProt Q9D659); binding, MST): 0.146 µM

Cc1cc(N2CC[C@](C#N)(C3(C)CC3)C2=O)cc(C(=O)NCc2cc(F)cc(-c3cnn(C)c3)c2)n1
Kd (Proline--tRNA ligase (Plasmodium falciparum, UniProt Q8I5R7); binding, MST): 0.393 µM

CCc1cc2c3c(c1CC)O[C@H](CO)[C@H](O)[C@@H]3OC2
Kd (LGALS9; cell-free assay, FP): ~5000 µM

CC[C@H](C)[C@H](NC(=O)[C@H](CC(=O)O)NC(=O)[C@H](CC(=O)O)NC(=O)[C@@H]1CCCN1C(=O)[C@H](CC(=O)O)NC(=O)[C@H](CC(C)C)NC(=O)[C@H](CCSC)NC(=O)[C@H](CC(C)C)NC(=O)[C@H](CC(=O)O)NC(=O)[C@H](CC(=O)O)NC(=O)[C@H](CCSC)NC(=O)[C@H](C)NC(=O)[C@H](CCC(N)=O)NC(=O)[C@H](CC(=O)O)NC(=O)[C@@H]1CCCN1C(=O)[C@H](CC(C)C)NC(=O)[C@@H]1CCCN1C(=O)[C@H](CC(=O)O)NC(=O)[C@H](CC(C)C)NC(=O)[C@@H](NC(=O)[C@H](CC(N)=O)NC(=O)[C@H](CC(N)=O)NC(=O)[C@H](CCC(=O)O)NC(=O)[C@@H]1CCCN1C(=O)[C@H](CC(C)C)NC(=O)[C@H](CC(C)C)NC(=O)[C@H](CCCCN)NC(=O)[C@H](Cc1c[nH]c2ccccc12)NC(=O)[C@H](CC(C)C)NC(=O)[C@H](CC(=O)O)NC(=O)[C@H](CC(=O)O)NC(=O)[C@H](Cc1ccccc1)NC(=O)[C@H](CC(=O)O)NC(=O)[C@H](CCC(=O)O)NC(=O)[C@H](CCC(N)=O)NC(=O)[C@H](CC(=O)O)NC(=O)[C@H](CC(C)C)NC(=O)[C@@H]1CCCN1C(=O)[C@@H]1CCCN1C(=O)[C@H](CCC(=O)O)NC(=O)[C@@H](N)C(C)C)C(C)C)C(=O)N[C@@H](CCC(=O)O)C(=O)N[C@@H](CCC(N)=O)C(=O)N[C@@H](Cc1c[nH]c2ccccc12)C(=O)N[C@@H](Cc1ccccc1)C(=O)N[C@@H](CC(=O)O)C(=O)N[C@@H](CCC(=O)O)C(=O)N[C@@H](CC(=O)O)C(=O)O
Kd (Histone acetyltransferase p300, IBiD domain (EP300, Homo sapiens, UniProt Q09472); fluorescence anisotropy; IBiD domain, with: labelled p53 TAD peptide): 3.2 ± 0.11 µM

COCCOCCOCCOC(=O)c1cnc2cc(-c3c(C)noc3C)c(OC)cc2c1N[C@H](C)c1ccccn1
Kd (Bromodomain-containing protein 4 (BRD4, Homo sapiens, UniProt O60885); binding, SPR): 8.5 µM

CC[C@H](C)[C@H](NC(=O)[C@H](CCCCN)NC(=O)[C@H](CCCCN)NC(=O)[C@@H](NC(=O)[C@H](CCC(=O)O)NC(=O)[C@H](CCC(=O)O)NC(=O)[C@H](CCC(=O)O)NC(=O)[C@H](CO)NC(=O)[C@H](CC(C)C)NC(=O)[C@H](CC(=O)O)NC(=O)[C@H](CC(C)C)NC(=O)CNC(=O)[C@H](CCCNC(=N)N)NC(=O)[C@H](CC(C)C)NC(=O)[C@H](CO)NC(=O)CNC(=O)CNC(=O)CNC(=O)CCCC[C@@H]1SC[C@@H]2NC(=O)N[C@@H]21)C(C)C)C(=O)N[C@@H](CC(C)C)C(=O)N[C@@H](CC(=O)O)C(=O)N[C@@H](CCC(=O)O)C(=O)N[C@H](C(=O)N[C@H](C(=O)N[C@@H](C)C(=O)N[C@@H](CC(=O)O)C(=O)O)C(C)C)[C@@H](C)CC
Kd (Fab B11 antibody (human); binding, biolayer interferometry; with: biotinylated peptide on tips): 2 ± 0.14 µM

For quick reference, copied from above:
CC[C@H](C)[C@H](NC(=O)[C@H](CCCCN)NC(=O)[C@H](CCCCN)NC(=O)[C@@H](NC(=O)[C@H](CCC(=O)O)NC(=O)[C@H](CCC(=O)O)NC(=O)[C@H](CCC(=O)O)NC(=O)[C@H](CO)NC(=O)[C@H](CC(C)C)NC(=O)[C@H](CC(=O)O)NC(=O)[C@H](CC(C)C)NC(=O)CNC(=O)[C@H](CCCNC(=N)N)NC(=O)[C@H](CC(C)C)NC(=O)[C@H](CO)NC(=O)CNC(=O)CNC(=O)CNC(=O)CCCC[C@@H]1SC[C@@H]2NC(=O)N[C@@H]21)C(C)C)C(=O)N[C@@H](CC(C)C)C(=O)N[C@@H](CC(=O)O)C(=O)N[C@@H](CCC(=O)O)C(=O)N[C@H](C(=O)N[C@H](C(=O)N[C@@H](CCCCN)C(=O)N[C@@H](C)C(=O)O)C(C)C)[C@@H](C)CC
Kd (Fab B11 antibody (human); binding, biolayer interferometry; with: biotinylated peptide on tips): 0.106 ± 0.004 µM

CCNC(=O)c1ccc(CNC(=O)Cn2cc(-c3c(C)noc3C)cn2)cc1
Kd (Bromodomain-containing protein 4, BD1 (BRD4, Homo sapiens, UniProt O60885); binding, SPR): 35 µM
